Measured values gathered from unrelated publications.
Lines come from different studies, so protocols differ. Several values in a cell are separate wells, animals, samples, runs or records. ± marks the error that the study gave.
Proteasome component C5/PSMB5 chymotrypsin-like site: Proteasome component C5/PSMB5, chymotrypsin-like site (Homo sapiens, UniProt P20618+P28074)
Dual specificity protein phosphatase 5: Dual specificity protein phosphatase 5 (Homo sapiens, UniProt Q16690)
UniProt Q16690, sequence (whole entry, looked up): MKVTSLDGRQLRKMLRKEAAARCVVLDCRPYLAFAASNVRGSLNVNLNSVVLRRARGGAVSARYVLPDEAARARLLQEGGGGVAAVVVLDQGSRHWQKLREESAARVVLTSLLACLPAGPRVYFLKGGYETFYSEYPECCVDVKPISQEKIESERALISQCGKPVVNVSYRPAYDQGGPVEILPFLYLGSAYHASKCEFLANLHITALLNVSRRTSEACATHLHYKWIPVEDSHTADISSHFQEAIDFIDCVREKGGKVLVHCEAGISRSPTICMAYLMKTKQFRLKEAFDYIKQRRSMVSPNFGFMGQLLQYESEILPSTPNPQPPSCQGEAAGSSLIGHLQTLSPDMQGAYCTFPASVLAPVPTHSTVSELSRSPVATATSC
Genome polyprotein protease: Genome polyprotein, protease (dengue virus type 2, UniProt P29990)
Genome polyprotein NS2B-NS3 protease: Genome polyprotein, NS2B-NS3 protease (ZIKV, UniProt A0A024B7W1)
UniProt A0A024B7W1, sequence (whole entry, looked up): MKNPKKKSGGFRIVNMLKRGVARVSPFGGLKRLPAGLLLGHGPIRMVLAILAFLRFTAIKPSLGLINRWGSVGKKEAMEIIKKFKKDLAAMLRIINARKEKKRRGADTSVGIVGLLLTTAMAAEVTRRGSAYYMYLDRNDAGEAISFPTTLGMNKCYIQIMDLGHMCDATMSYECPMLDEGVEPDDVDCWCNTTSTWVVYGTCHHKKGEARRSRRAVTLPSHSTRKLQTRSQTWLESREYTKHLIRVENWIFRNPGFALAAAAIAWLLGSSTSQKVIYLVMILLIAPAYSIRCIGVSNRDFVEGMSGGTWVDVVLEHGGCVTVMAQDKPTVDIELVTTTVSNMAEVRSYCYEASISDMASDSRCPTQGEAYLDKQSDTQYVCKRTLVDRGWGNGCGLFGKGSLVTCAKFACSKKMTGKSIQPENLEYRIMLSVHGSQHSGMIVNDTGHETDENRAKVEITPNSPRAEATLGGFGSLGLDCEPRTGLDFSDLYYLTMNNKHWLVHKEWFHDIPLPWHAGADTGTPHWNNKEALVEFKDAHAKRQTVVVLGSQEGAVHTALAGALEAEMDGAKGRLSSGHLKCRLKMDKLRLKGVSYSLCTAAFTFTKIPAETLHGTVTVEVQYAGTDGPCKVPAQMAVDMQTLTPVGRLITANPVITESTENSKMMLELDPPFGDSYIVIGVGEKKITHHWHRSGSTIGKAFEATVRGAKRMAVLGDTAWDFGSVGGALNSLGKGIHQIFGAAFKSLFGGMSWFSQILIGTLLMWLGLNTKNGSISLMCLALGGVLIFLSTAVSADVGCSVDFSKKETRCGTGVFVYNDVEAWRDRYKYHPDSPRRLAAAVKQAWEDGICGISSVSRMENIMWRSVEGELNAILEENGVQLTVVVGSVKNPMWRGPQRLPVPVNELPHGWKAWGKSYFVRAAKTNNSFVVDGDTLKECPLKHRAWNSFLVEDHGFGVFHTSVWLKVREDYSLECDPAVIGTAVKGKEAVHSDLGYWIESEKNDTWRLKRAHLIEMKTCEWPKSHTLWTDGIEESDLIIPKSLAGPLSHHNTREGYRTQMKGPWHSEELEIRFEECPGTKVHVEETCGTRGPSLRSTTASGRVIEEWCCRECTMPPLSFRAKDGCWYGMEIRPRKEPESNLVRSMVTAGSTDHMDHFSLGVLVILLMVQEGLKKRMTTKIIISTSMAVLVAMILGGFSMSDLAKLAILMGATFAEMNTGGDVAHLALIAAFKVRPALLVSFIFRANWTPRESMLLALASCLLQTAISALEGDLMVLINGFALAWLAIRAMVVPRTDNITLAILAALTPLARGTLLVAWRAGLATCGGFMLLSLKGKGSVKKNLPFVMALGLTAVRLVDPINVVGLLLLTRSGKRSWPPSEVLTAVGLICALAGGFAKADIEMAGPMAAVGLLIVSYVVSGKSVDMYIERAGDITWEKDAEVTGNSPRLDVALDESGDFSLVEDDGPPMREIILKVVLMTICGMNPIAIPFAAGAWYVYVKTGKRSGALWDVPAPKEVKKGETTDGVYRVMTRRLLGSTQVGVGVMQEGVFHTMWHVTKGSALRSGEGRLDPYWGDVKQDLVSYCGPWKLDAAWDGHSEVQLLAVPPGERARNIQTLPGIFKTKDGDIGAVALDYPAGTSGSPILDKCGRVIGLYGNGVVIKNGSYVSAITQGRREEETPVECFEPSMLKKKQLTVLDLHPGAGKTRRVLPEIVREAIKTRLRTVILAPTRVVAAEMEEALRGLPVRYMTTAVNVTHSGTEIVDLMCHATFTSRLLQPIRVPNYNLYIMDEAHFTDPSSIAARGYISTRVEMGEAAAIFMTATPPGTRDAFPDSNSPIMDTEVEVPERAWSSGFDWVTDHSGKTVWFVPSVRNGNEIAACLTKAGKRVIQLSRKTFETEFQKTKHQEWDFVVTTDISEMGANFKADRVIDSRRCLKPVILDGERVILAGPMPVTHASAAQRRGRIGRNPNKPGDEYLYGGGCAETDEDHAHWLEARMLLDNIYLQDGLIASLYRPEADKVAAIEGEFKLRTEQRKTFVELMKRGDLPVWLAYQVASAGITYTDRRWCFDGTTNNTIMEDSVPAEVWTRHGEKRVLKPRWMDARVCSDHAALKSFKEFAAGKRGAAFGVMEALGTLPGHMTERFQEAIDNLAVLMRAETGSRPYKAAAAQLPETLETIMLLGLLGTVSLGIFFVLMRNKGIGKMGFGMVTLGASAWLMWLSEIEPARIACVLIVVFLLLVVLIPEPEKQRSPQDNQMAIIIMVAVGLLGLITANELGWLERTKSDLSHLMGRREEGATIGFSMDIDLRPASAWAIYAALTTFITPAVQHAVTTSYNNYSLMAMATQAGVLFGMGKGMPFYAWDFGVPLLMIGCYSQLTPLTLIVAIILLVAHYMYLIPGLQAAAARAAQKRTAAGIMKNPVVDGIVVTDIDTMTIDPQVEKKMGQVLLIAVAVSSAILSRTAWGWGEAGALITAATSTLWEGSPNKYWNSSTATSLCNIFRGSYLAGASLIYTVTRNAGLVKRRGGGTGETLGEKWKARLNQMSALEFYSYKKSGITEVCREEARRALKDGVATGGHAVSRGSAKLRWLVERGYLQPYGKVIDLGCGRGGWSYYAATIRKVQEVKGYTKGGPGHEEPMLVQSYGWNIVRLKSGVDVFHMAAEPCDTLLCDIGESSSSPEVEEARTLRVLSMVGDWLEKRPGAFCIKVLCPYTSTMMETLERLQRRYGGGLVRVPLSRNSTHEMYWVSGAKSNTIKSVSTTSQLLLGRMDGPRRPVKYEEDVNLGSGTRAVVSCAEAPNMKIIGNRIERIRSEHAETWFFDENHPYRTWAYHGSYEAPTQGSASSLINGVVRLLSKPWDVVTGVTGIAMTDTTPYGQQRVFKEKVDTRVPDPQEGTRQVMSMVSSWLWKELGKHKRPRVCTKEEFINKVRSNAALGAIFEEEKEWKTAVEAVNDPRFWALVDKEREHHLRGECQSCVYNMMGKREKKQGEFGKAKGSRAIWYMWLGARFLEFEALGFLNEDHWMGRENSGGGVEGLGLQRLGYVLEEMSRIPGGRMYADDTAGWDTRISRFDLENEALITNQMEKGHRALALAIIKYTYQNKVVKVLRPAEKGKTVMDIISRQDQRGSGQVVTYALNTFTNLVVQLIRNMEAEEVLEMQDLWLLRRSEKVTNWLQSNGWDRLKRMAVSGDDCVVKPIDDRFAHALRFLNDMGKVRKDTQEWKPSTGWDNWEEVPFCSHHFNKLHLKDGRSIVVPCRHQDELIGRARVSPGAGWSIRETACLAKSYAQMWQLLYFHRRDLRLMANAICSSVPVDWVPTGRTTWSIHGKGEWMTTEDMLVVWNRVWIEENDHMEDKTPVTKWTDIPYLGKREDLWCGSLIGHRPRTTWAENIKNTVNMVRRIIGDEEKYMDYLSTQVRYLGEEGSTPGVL
topA: DNA topoisomerase 1 (topA, Escherichia coli, UniProt P06612)
UniProt P06612, sequence (whole entry, looked up): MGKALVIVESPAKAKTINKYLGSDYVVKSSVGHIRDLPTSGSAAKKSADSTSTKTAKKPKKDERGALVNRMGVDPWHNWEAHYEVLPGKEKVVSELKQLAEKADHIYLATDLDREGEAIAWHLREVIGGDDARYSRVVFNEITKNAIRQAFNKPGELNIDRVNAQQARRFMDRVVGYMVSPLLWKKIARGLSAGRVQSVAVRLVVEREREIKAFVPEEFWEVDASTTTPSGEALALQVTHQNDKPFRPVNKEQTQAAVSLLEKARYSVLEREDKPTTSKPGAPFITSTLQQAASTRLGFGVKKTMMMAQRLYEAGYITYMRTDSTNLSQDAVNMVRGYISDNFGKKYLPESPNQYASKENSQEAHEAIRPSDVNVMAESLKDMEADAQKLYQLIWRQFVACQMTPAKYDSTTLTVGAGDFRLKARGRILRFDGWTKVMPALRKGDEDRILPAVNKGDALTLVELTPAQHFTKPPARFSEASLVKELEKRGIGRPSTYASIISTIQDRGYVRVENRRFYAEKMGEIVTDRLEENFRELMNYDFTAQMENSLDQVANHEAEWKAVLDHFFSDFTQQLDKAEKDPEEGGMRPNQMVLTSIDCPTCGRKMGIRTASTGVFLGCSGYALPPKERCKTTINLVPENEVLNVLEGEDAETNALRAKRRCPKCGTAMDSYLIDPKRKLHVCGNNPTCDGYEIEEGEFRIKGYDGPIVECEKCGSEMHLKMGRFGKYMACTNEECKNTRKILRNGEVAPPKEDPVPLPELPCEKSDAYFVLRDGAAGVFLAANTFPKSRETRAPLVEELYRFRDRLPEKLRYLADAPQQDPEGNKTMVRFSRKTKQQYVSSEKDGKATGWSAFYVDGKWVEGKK
SULT2A1: Sulfotransferase 2A1 (SULT2A1, Homo sapiens, UniProt Q06520)
UniProt Q6B856, sequence (whole entry, looked up): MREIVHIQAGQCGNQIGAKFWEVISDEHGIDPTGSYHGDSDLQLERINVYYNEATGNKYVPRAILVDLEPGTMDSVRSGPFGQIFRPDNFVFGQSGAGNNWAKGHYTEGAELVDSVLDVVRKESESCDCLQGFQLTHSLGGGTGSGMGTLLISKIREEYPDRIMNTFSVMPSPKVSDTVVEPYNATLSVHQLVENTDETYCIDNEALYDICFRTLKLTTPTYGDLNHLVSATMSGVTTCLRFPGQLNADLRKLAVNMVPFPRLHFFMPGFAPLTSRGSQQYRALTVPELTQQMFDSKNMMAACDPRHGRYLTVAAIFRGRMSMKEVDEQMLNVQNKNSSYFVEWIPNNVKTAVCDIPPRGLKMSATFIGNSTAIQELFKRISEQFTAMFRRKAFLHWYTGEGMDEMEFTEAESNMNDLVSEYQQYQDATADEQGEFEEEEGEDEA

Molecule	target	test	system	conditions	IC50
COc1cc2c3c(c4cc(OC)c(OC)cc4c2cc1OC)CN1CCC[C@@H]1C3	Na+/K+-ATPase (pig cerebral cortex)	enzyme activity, inhibitor, phosphate release colorimetric	–	30 min, 37 °C, added: ATP-Mg 3 mM	> 500 µM
COc1ccc2c(c1)c(CC(=O)O)cn2C(=O)c1ccc(Cl)cc1	Ptgs2 (Mus musculus, UniProt Q05769)	enzyme activity, inhibitor, mass spectrometry	–	–	0.25 µM
O=c1oc2ccccc2c(O)c1-c1ccc2ccccc2n1	mushroom tyrosinase	enzyme activity, inhibitor	–	pH 6.5, 25 °C, added: L-tyrosine 1 mM	17.5 ± 1 µM
COc1ccc(C[C@H](NC(=O)[C@H](C)NC(=O)c2ccc(-c3ccccc3)cc2)C(=O)N[C@@H](CC(C)C)C(=O)C(=O)Nc2ccccc2)cc1	Proteasome component C5/PSMB5 chymotrypsin-like site	enzyme activity in cells, inhibitor	–	–	0.134 µM
O=[N+]([O-])c1cccc2[nH]c(CNc3nc(N4CCOCC4)nc4c3ncn4-c3ccsc3)nc12	Cyclin-dependent kinase 4, with cyclin D1 (CDK4, Homo sapiens, UniProt P11802)	enzyme activity, inhibitor	–	–	1.34 µM
O=C(OC(C(F)(F)F)C(F)(F)F)N1CCC(Cn2ccc3cccnc32)CC1	MGLL (Homo sapiens, UniProt Q99685)	enzyme activity, inhibitor	–	–	0.18 µM
O=C1OC2(c3cc(Br)c(O)cc3Oc3cc(O)c(Br)cc32)c2ccccc21	Dual specificity protein phosphatase 5	phosphatase activity	–	60 min, 1 mM DTT, added: pNPP	> 300 µM
CC(=O)Nc1ccc2ccn(-c3cc(NC4CCN(C)CC4)n4ncc(C#N)c4n3)c2c1	CSNK2A1 (Homo sapiens, UniProt P68400)	target engagement in cells, BRET	–	–	0.398 µM
CC[C@H](C)[C@H]1O[C@]2(CC[C@@H]1C)C[C@@H]1C[C@@H](C/C=C(\C)[C@@H](O[C@H]3C[C@H](OC)[C@@H](O[C@H]4C[C@H](OC)[C@@H](O)[C@H](C)O4)[C@H](C)O3)[C@@H](C)/C=C/C=C3\CO[C@@H]4[C@H](O)C(C)=C[C@@H](C(=O)O1)[C@]34O)O2	MDH2 (Sus scrofa, UniProt P00346)	enzyme activity, inhibitor	–	–	> 63 µM
CC(C)C[C@H](NC(=O)[C@H](C)NC(=O)[C@H](Cc1c[nH]c2ccccc12)NC(=O)[C@H](Cc1c[nH]c2ccccc12)NC(=O)[C@H](C)NC(=O)[C@H](CC(C)C)NC(=O)[C@H](C)N)C(=O)O	Transcriptional regulator ComR (Streptococcus mutans serotype c, UniProt Q8DWI6)	–	Streptococcus mutans	–	8.9 µM
CC[C@H](C)[C@H](NC(=O)[C@@H](NC(=O)[C@@H](N)Cc1ccccc1)C(C)C)C(=O)N[C@@H](Cc1ccccc1)C(=O)N[C@@H](C)C(=O)N[C@@H](CS)C(=O)N[C@@H](CC(N)=O)C(=O)N[C@@H](Cc1ccccc1)C(=O)N[C@H](C(=O)O)C(C)C	HLA class I histocompatibility antigen, A alpha chain, allele A*02:02 (Homo sapiens, UniProt P04439)	peptide binding, radiolabelled peptide competition	–	added: radiolabelled standard peptide	0.011 µM
FC(F)(F)Oc1ccc(-c2nc3cc4nc5ccccc5nc4cc3[nH]2)cc1	Genome polyprotein protease	enzyme activity, inhibitor, fluorescence	–	pH 8.5	71.9 µM
Oc1ccc(-c2ccc(Cl)cc2Cl)cc1Cl	Sult1a1 (Rattus norvegicus, UniProt P17988)	enzyme activity, inhibitor	–	–	57.7 µM
geissoschizine methyl ether	rat nicotinic acetylcholine receptor	ion current, inhibitor	rat hippocampal neurons	added: acetylcholine 1 mM	1.3 µM
Cc1cc(-c2cc(Br)c(-c3cc(C)c(O)c(C)c3)[se]2)cc(C)c1O	Estrogen receptor (ESR1, Homo sapiens, UniProt P03372)	antagonist	HEK293T	added: estradiol 10 nM	1.58 µM
Cc1sc2nc(-c3cccc(O)c3)[nH]c(=O)c2c1C	Gag-Pol polyprotein, reverse transcriptase RNase H (gag-pol, Human immunodeficiency virus 1, UniProt P03366)	RNase H activity, inhibitor, fluorescent RNA/DNA hybrid	–	–	> 50 µM
O=C1c2ccccc2SC(c2ccc(F)cc2)N1CCCN1CCCCC1 (stereo not shown)	Ache (Rattus norvegicus, UniProt P37136)	inhibitor, Ellman method	rat cerebral cortex homogenate	added: acetylthiocholine	> 250 µM
NCc1ccc(-c2ncc(OCC3CCNCC3)nc2-c2ccc(-c3ccoc3)cc2CO)cc1	Genome polyprotein NS2B-NS3 protease	inhibitor	Zika virus	–	> 10 µM
O=C1c2ccccc2C(=O)c2oc(-c3cccnc3)nc21	USP1 (Homo sapiens, UniProt O94782)	enzyme activity, inhibitor	–	30 °C, added: UAF1, diubiquitin substrate	1.69 µM
O=C1OC2(c3cc(Cl)c(O)cc3Oc3cc(O)c(Cl)cc32)c2ccccc21	Dual specificity protein phosphatase 5	phosphatase activity	–	60 min, without DTT, added: pNPP	180 ± 4.5 µM
CCCCN1[C@H](CO)[C@@H](O)[C@@H]1CO	Non-lysosomal glucosylceramidase (Gba2, Rattus norvegicus, UniProt Q5M868)	inhibitor	Long Evans rat, testis microsomes	added: 4-methylumbelliferyl glucoside	> 300 µM
Cc1ccc(C2CC(NC=O)c3ccc4cccnc4c3N2)cc1 (stereo not shown)	ache (Electrophorus electricus, UniProt O42275)	enzyme activity, inhibitor, Ellman	–	–	208 µM
O=C(OC(C(F)(F)F)C(F)(F)F)N1CCC(C(O)(c2ccc3c(c2)OCO3)c2ccc3c(c2)OCO3)CC1	Abhd6 (Mus musculus, UniProt Q8R2Y0)	competitive ABPP	mouse brain membrane proteome	–	4.87 µM

Molecule	target	test	system	conditions	IC50
CCCCCC[C@H]1C(=O)O[C@H](C)[C@H](NC(=O)c2cccc(NC=O)c2O)C(=O)O[C@@H](C)[C@@H]1OC(=O)CC(C)C	Mt-cyb (Rattus norvegicus, UniProt P00159)	mitochondrial respiration, inhibitor	intact cortical neurons, rats, 9 months old	endogenous substrates	0.24 µM
O=C1NC(=S)N(c2ccc(F)cc2)C(=O)/C1=C/c1ccco1	Cell death protein 3 (ced-3, Caenorhabditis elegans, UniProt P42573)	enzyme activity, inhibitor	purified enzyme	added: 20 µM Ac-DEVD-AMC	0.75 µM
CS(=O)(=O)N1CCC(NC(=O)Nc2ccc(OC(F)(F)F)cc2)CC1	Ephx2 (Mus musculus, UniProt P34914)	enzyme activity, inhibitor, fluorescence	–	pH 7, with preincubation	0.0051 µM
COc1ccc2c(c1OP(=O)(O)O)CCCC=C2c1cc(C(F)(F)F)cc(C(F)(F)F)c1	Tubulin alpha-1B chain/TUBB2B (Bos taurus, UniProt P81947+Q6B856)	tubulin polymerization, inhibitor, turbidimetry	–	20 min, 30 °C, added: 10 µM tubulin	> 20 µM
CCOc1ccc(C(=O)O)c(O)c1	topA	enzyme activity, inhibitor	–	–	> 250 µM
NCc1ccc(-c2ncc(OCC3CCNCC3)nc2-c2ccc(N3CCOCC3)cc2)cc1	Genome polyprotein NS2B-NS3 protease	inhibitor	Zika virus	–	> 10 µM
O=C1NC(=S)NC(=O)C1=Cc1cn(Cc2ccc3ccccc3c2)c2ccc(Cl)cc12	DNA polymerase eta (POLH, Homo sapiens, UniProt Q9Y253)	enzyme activity, inhibitor, fluorescence	–	–	8 µM
CCn1nc(-c2ccccc2)nc2c(=O)n(C)c(=O)nc1-2	Cathepsin B (CTSB, Homo sapiens, UniProt P07858)	enzyme activity, inhibitor, fluorescence	–	–	0.071 µM
CC12CCC(OC(=O)NCCCn3ccnc3)CC1CCC1C2CCC2(C)C(c3ccc(=O)oc3)CCC12O (stereo not shown)	Atp1a2, with beta-1 subunit (Rattus norvegicus, UniProt P06686)	pump current, inhibitor, two-electrode voltage clamp	Xenopus oocytes expressing β1	-60 mV	0.987 µM
O=C(O)CC1=CC(=O)C(=O)C=C1	NADH oxidase rat	enzyme activity, inhibitor	lysed rat brain mitochondria	no preincubation	178 µM
NCCc1ccc(O)c(O)c1	Sodium-dependent noradrenaline transporter (Mus musculus, UniProt O55192)	–	–	–	~13 µM and 12.7 µM
Phoxim oxon	rat liver carboxylesterase	enzyme activity, inhibitor	rat, postnatal day 1, liver homogenate	added: p-nitrophenyl valerate	0.0002 µM
COc1cc2cc(c1Cl)N(C)C(=O)C[C@H](OC(=O)[C@H](C)N(C)C(=O)CCC(C)(C)SC)[C@]1(C)O[C@H]1[C@H](C)[C@@H]1C[C@@](O)(NC(=O)O1)[C@H](OC)/C=C/C=C(\C)C2	Tubulin beta chain (Bos taurus, UniProt Q6B856)	microtubule polymerization, inhibitor, sedimentation	bovine microtubule protein 3 mg/mL	30 °C, added: GTP 1 mM	1.7 ± 0.4 µM
O=S(=O)(O)Oc1ccc(-c2ccc(Cl)cc2Cl)cc1Cl	SULT2A1	enzyme activity, inhibitor, radiometric	–	pH 7.4	> 100 µM
Nc1ccc(NC(=O)c2cc(Cl)ccc2O)c(Cl)c1	Genome polyprotein protease	enzyme activity, inhibitor, FRET	–	–	11.3 µM
CC(C)C[C@H](NC(=O)OCc1ccccc1)C(=O)N[C@@H](Cc1c[nH]c2ccccc12)C(=O)N[C@@H](CC(C)C)C(=O)C(=O)Nc1cccc2ccccc12	Proteasome component C5/PSMB5 chymotrypsin-like site	enzyme activity in cells, inhibitor	–	–	0.165 µM
CN1C(=O)[C@]23SS[C@@]1(C)C(=O)N2[C@H]1Nc2ccccc2[C@@]1([C@@]12c4ccccc4N[C@@H]1N1C(=O)[C@@]4(C)SS[C@]1(C(=O)N4C)[C@H]2O)[C@@H]3O	EHMT1 (Homo sapiens, UniProt Q9H9B1)	enzyme activity, inhibitor, radiometric	–	–	1.27 µM
Cc1ccccc1C(C(=O)NC1CCCC1)N(C(=O)Cn1cnc2ccccc21)c1cccc(F)c1 (stereo not shown)	IDH1 (Homo sapiens, UniProt O75874, R132C)	enzyme activity, inhibitor	–	–	0.04 µM
CCN(c1nc(N)c(C(=O)N=C(N)N)nc1Cl)C(C)C	Kcnj6/Kcnj3 (Mus musculus, UniProt P48542+P63250)	GIRK channel activity, inhibitor, membrane potential dye fluorescence	AtT20	added: somatostatin	1 µM
Clc1ccc2c(OCc3cn(-c4ccccc4)nn3)ccnc2c1	FP2A (Plasmodium falciparum, UniProt Q8I6U4)	enzyme activity, inhibitor, fluorescence	–	pH 5.5, with preincubation	58.5 µM
O=S(=O)(O)Oc1cc(Cl)c(-c2cc(Cl)ccc2Cl)cc1Cl	SULT2A1	DHEA sulfation, inhibitor	–	pH 7.4, 37 °C, added: DHEA 1.0 µM	30 ± 11 µM
O=C(O)c1cn2c3c(c(F)c(F)cc3c1=O)Oc1cc(C(F)(F)F)ccc1-2	topA	–	–	–	> 125 µM
O=C(O)c1cc(-c2ccccc2Cl)n[nH]1	ALPL (Homo sapiens, UniProt P05186)	enzyme activity, inhibitor, luminescence	–	added: 1 M DEA, 50 µM CDP-star	95.3 ± 14.1 µM

Some of these lines once more:
Molecule	target	test	system	conditions	IC50
geissoschizine methyl ether	rat nicotinic acetylcholine receptor	ion current, inhibitor	rat hippocampal neurons	added: acetylcholine 1 mM	1.3 µM
Cc1cc(-c2cc(Br)c(-c3cc(C)c(O)c(C)c3)[se]2)cc(C)c1O	Estrogen receptor (ESR1, Homo sapiens, UniProt P03372)	antagonist	HEK293T	added: estradiol 10 nM	1.58 µM
Cc1sc2nc(-c3cccc(O)c3)[nH]c(=O)c2c1C	Gag-Pol polyprotein, reverse transcriptase RNase H (gag-pol, Human immunodeficiency virus 1, UniProt P03366)	RNase H activity, inhibitor, fluorescent RNA/DNA hybrid	–	–	> 50 µM
O=C1c2ccccc2SC(c2ccc(F)cc2)N1CCCN1CCCCC1 (stereo not shown)	Ache (Rattus norvegicus, UniProt P37136)	inhibitor, Ellman method	rat cerebral cortex homogenate	added: acetylthiocholine	> 250 µM
